Experimental data of several laboratories.
Numbered parts are unrelated; each lists some results of a single study. Changes are numbered by the printed parent chain.

Study 1
Target: ABI1, truncated, D143A, DHFR fusion (Arabidopsis thaliana)
Method: DHFR PCA, deep sequencing
Sample: yeast
Notes: methotrexate growth selection, single substitutions
Together with: (+)-ABA 0.39 µM
Reference: wild-type fitted maximum
Direction: higher = stronger binding
Starting sequence: PYL1, truncated, DHFR fusion (Arabidopsis thaliana); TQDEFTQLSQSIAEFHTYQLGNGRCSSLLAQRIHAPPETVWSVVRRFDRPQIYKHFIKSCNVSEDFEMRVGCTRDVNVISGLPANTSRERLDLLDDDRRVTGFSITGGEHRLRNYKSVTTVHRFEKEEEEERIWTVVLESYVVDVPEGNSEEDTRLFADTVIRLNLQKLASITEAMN
`R46G` — result for “relative binding score”: 0.212%.
`D65C`: “relative binding score” 15.8%.
For `D97C`, “relative binding score” read 17.6%.
`F103A` — result for “relative binding score”: -11.3%.
Under “relative binding score”, `R123Q` is recorded as 63.6%.
Under “relative binding score”, `T119A` is recorded as -2.37%.
Under “relative binding score”, `R99N` is recorded as -5.65%.
`E89F` — result for “relative binding score”: -2.81%.
`E38F`: “relative binding score” -6.15%.
For `Y115W`, “relative binding score” read -1.33%.

Study 2
Target: Sal-like protein 4, full length isoform A (SALL4, Homo sapiens, UniProt Q9UJQ4, residues 1-1053)
Sequence of UniProt Q9UJQ4 (whole entry, looked up): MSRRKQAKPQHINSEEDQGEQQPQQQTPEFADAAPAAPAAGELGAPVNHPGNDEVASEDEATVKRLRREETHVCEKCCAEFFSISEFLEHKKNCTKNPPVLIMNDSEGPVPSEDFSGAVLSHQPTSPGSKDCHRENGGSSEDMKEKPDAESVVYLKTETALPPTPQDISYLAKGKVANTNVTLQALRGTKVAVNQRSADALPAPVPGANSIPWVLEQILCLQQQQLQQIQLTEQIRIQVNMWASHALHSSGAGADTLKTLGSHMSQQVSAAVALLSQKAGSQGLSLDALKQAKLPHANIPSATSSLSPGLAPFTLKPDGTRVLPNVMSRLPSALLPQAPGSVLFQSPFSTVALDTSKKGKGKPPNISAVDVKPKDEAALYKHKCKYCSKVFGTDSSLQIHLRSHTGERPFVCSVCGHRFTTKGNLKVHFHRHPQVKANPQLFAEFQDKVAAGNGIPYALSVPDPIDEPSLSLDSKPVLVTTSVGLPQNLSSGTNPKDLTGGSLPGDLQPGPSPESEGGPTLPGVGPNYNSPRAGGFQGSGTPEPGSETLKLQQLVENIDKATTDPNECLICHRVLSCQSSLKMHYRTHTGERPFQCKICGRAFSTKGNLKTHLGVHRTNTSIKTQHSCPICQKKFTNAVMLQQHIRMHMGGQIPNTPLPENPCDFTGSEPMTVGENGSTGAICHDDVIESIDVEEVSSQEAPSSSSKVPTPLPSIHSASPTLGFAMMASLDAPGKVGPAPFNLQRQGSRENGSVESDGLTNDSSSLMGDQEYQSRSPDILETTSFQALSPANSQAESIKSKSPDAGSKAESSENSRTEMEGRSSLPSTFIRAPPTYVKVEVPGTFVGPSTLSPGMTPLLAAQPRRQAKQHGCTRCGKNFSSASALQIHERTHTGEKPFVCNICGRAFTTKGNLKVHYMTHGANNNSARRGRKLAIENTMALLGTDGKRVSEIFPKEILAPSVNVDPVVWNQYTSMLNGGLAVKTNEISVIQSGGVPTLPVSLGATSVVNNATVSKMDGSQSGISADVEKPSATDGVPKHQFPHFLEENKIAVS
Method: universal PBM
Form: double-stranded DNA, one strand shown
Sample: in vitro
Concentration: 600 nM
Notes: 8-mer, flanks averaged, mean of replicates
Direction: higher = stronger binding
`GAGCGCTA` gave an E-score of -0.168.
The E-score of `CCGCCATC` is reported as -0.313.
The E-score of `GGAATGAC` is reported as -0.0267.
`AATCCACC` gave an E-score of -0.124.
`AACCAACT` has an E-score of 0.0263.
With `AAAGGTCA` the E-score was -0.0849.
The E-score of `AATACGCG` is reported as 0.0362.
With `CTAATGGC` the E-score was -0.033.
`CAAGGTAC` gave an E-score of 0.0566.

Study 3
Target: Histone acetyltransferase KAT6A, both winged helices, GST fusion (KAT6A, Homo sapiens, UniProt Q92794, residues 1-181)
Method: protein binding microarray
Form: double-stranded DNA, one strand shown
Sample: in vitro
Concentration: not given
Notes: 8-mer, flanks averaged, mean of 2 arrays, mostly near background
Reference: not given
Direction: higher = stronger binding
Construct (chain): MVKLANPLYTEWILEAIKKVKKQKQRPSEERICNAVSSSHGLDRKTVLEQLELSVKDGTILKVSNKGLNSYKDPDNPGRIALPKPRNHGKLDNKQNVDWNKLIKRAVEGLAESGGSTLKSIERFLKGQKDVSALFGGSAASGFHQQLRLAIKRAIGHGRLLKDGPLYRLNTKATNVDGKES
`AGTAGTAA` has an E-score of -0.0498.
`CCCGGAGA` gave an E-score of 0.129.
`ACTTATAG` has an E-score of 0.00756.
`CAGAAGAA` has an E-score of -0.198.
For `AACAAAAG`, the E-score was 0.0934.
`GTATGGAC` gave an E-score of -0.079.
With `GTGCCTTA` the E-score was -0.22.

Single results of other studies
The fold induction of `PhoQ, residues 284 288 289 292 302 303 TLMATV` is reported as 11.9 (PhoP, residues 12 14 15 18 19 NQGLL (Escherichia coli, UniProt P23836); Sort-seq, refers to: YFP reporter; E. coli; PhoQ-PhoP variant library, together with: 10 µM Mg2+; reference: high Mg2+ state, higher = stronger signaling).

Repeated from above (study 2):
With `CTAATGGC` the E-score was -0.033.
